{"data": "Experimental data of several laboratories", "note": "Every numbered part comes from another study and shows a few of its results, in no order.", "chain of UniProt Q9BYP7 (whole entry, looked up)": "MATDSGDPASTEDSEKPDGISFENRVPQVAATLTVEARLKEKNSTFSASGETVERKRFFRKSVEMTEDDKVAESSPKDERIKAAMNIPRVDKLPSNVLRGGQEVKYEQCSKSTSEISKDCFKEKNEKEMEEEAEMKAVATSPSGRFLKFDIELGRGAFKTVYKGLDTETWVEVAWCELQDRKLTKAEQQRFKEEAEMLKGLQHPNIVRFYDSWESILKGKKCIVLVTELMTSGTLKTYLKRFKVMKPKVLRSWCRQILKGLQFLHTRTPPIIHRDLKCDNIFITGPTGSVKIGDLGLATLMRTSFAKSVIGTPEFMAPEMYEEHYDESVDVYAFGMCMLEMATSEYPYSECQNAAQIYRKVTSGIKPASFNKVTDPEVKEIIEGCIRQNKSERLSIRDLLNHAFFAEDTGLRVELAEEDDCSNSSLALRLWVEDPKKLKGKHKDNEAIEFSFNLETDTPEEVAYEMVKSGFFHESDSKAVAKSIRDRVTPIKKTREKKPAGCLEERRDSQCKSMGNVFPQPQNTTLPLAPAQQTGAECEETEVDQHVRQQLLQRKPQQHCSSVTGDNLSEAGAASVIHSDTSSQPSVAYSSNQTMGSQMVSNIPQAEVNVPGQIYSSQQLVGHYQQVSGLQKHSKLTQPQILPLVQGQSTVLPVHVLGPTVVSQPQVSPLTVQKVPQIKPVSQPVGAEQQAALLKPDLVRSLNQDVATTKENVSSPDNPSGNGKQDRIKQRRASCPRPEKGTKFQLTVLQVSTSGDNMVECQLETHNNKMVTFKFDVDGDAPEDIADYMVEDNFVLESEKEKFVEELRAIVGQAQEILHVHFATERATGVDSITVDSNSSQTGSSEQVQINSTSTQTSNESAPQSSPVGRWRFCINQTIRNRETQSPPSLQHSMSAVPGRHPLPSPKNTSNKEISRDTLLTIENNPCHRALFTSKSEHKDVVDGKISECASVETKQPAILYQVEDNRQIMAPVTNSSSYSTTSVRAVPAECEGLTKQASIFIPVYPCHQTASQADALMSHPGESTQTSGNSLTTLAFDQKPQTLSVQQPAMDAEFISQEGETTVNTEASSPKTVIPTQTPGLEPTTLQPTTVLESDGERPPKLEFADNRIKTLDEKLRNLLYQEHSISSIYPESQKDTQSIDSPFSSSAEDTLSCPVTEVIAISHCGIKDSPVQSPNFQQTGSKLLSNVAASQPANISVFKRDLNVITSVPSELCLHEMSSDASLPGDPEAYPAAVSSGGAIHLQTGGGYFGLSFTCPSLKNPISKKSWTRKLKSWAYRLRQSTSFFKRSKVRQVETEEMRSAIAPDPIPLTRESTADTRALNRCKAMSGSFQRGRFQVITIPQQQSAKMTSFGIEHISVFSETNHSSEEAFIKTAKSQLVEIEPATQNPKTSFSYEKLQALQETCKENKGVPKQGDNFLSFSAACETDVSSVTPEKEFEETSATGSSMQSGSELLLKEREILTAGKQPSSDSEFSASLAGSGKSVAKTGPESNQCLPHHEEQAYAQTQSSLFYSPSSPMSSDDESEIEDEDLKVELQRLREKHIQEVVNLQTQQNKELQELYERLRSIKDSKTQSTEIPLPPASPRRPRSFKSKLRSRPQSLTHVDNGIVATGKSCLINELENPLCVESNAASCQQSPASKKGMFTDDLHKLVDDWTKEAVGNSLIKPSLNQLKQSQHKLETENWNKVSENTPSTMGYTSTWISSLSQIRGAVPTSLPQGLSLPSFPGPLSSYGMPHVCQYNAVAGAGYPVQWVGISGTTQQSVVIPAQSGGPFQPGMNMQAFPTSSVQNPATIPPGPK", "chain of UniProt P45983 (whole entry, looked up)": "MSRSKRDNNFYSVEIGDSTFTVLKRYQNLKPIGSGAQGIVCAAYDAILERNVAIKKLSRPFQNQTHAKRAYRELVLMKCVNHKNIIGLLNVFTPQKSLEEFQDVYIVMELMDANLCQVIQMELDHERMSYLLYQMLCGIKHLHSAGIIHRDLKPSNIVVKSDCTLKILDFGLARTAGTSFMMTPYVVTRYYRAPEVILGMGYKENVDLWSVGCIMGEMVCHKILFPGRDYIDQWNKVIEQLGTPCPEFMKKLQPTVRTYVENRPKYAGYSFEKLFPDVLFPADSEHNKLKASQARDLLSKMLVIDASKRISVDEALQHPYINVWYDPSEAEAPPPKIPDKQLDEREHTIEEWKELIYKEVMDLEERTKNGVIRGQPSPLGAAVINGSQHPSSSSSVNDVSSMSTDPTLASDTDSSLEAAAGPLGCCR", "chain of UniProt Q8TDR2 (whole entry, looked up)": "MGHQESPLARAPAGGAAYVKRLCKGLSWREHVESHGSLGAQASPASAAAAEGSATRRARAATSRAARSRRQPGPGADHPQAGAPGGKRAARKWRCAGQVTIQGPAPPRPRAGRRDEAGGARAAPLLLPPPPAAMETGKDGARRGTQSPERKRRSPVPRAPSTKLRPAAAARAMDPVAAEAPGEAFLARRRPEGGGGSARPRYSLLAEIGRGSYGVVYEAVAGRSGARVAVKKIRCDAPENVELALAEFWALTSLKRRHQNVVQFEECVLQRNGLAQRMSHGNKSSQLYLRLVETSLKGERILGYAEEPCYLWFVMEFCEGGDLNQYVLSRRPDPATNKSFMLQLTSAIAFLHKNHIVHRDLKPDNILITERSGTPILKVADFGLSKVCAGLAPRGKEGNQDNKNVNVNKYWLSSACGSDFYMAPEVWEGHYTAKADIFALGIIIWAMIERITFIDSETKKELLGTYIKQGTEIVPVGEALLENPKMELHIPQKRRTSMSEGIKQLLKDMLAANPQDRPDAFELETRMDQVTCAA", "chain of UniProt Q8NI60 (whole entry, looked up)": "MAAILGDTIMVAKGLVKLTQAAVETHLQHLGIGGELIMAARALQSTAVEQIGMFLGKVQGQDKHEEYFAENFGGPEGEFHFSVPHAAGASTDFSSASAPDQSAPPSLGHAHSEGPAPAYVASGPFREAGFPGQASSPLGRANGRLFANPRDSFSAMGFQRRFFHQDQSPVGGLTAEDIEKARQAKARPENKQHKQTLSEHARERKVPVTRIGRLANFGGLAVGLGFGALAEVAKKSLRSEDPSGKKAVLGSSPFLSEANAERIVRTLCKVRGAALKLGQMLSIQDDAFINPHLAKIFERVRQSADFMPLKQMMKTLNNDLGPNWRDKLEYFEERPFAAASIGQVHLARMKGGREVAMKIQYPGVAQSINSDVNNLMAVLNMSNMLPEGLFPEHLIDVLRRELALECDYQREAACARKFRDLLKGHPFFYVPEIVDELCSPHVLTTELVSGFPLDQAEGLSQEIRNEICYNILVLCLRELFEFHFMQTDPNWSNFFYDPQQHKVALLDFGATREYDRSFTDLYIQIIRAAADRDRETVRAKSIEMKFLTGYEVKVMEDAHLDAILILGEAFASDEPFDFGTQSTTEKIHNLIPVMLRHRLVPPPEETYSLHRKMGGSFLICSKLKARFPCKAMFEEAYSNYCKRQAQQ", "chain of UniProt P10721 (whole entry, unmodified, looked up)": "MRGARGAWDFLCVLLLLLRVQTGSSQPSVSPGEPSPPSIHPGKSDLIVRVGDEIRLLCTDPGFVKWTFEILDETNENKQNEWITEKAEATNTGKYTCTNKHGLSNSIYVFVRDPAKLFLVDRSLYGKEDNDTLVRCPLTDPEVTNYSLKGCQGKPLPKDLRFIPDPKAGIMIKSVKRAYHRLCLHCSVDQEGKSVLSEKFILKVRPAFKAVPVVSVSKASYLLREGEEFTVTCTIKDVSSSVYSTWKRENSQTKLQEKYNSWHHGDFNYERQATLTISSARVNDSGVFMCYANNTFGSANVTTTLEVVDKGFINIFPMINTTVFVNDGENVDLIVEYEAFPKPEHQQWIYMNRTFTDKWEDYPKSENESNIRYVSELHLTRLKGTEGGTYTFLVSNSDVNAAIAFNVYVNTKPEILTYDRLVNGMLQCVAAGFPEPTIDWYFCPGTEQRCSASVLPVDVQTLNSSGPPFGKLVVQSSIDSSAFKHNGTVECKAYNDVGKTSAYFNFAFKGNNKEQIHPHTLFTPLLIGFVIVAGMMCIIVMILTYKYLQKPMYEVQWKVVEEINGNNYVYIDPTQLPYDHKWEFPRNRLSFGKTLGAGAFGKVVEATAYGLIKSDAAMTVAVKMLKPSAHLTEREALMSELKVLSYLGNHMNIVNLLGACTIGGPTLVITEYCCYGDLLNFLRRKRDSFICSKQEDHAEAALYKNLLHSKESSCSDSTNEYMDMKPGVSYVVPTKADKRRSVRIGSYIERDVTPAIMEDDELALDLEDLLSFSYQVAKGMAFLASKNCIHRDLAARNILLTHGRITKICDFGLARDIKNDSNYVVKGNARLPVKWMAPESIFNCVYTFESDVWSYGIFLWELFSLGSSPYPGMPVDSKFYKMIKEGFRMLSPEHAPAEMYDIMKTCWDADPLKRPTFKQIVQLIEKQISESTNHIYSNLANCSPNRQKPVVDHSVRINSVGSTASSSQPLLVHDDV", "chain of UniProt O00238 (whole entry, looked up)": "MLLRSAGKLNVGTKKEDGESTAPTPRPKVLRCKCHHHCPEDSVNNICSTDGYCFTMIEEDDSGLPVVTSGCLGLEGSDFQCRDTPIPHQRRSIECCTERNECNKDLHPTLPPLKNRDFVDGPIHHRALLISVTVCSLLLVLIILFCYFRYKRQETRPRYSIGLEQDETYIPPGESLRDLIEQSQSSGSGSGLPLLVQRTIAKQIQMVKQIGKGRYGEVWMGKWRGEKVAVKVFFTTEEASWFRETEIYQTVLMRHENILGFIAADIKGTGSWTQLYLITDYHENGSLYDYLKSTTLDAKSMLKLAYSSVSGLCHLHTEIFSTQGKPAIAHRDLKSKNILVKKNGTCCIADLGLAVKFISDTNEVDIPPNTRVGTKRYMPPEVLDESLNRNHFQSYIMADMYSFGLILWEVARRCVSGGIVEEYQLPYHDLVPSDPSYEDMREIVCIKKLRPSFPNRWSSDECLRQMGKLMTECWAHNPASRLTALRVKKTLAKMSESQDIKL"}
{"data": "Series 1", "target": "Diamine acetyltransferase 1 (Homo sapiens, UniProt P21673)", "mode": "inhibitor", "concentration": "10 µM", "relative to": "control", "Target sequence (P21673 1-171)": "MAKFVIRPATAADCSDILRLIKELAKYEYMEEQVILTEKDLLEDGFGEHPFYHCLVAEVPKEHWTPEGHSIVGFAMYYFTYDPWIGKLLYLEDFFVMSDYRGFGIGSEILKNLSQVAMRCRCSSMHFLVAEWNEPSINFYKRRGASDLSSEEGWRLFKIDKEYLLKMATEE"}
{"SMILES": "O=C(O)CCc1ccc(O)c(O)c1", "remaining activity": "78.9%"}
{"SMILES": "Cc1cc(O)c2c(c1)C(=O)c1cc(O)cc(O[C@@H]3O[C@H](CO)[C@@H](O)[C@H](O)[C@H]3O)c1C2=O", "remaining activity": "97.2%"}
{"SMILES": "COc1cc(O)c2c(=O)c(-c3ccc(O)cc3)coc2c1", "remaining activity": "97.2%"}
{"SMILES": "C[C@@H](N)C(=O)O", "remaining activity": "102%"}
{"SMILES": "CC(=O)O[C@@H]1C[C@H](C)CC[C@H]1C(C)C", "remaining activity": "100%"}
{"SMILES": "O=c1ccc2cc(O)ccc2o1", "remaining activity": "100%"}
{"SMILES": "CC(C)CCCC(C)CCCC(C)CCCCC(C)CCCC(C)CCCC(C)C (stereo not shown)", "remaining activity": "85.4%"}
{"SMILES": "COc1ccc(-c2cc(=O)c3c(O)cc(O[C@@H]4O[C@H](CO[C@@H]5O[C@@H](C)[C@H](O)[C@@H](O)[C@H]5O)[C@@H](O)[C@H](O)[C@H]4O)cc3o2)cc1", "remaining activity": "111%"}
{"SMILES": "NC(N)=NCCC[C@H](N)C(=O)O", "remaining activity": "81.9%"}
{"SMILES": "CCC/C=C/C=O", "remaining activity": "105%"}
{"SMILES": "COc1ccc(/C=C/C(=O)/C=C(O)/C=C/c2ccc(OC)c(OC)c2)cc1OC", "remaining activity": "96.4%"}
{"SMILES": "C=C(C)[C@@H]1CC[C@]2(C)CC[C@]3(C)[C@H](CC[C@@H]4[C@@]5(C)CC[C@H](O)C(C)(C)[C@@H]5CC[C@]43C)[C@@H]12", "remaining activity": "88.4%"}
{"SMILES": "CCCCC/C=C\\C/C=C\\CCCCCCCC(=O)OCC(COC(=O)CCCCCCC/C=C\\C/C=C\\CCCCC)OC(=O)CCCCCCC/C=C\\C/C=C\\CCCCC", "remaining activity": "97%"}
{"SMILES": "COc1ccc(C[C@@H]2c3cc(Oc4cc(C[C@@H]5c6cc(O)c(OC)cc6CCN5C)ccc4O)c(OC)cc3CCN2C)cc1", "remaining activity": "102%"}
{"data": "Series 2", "Compound": "Cc1cncc2cccc(S(=O)(=O)N3CCCN(C(=O)CN)C[C@@H]3C)c12", "effect on": "enzyme activity", "mode": "inhibitor", "concentration": "0.5 µM", "relative to": "control"}
{"target": "EPHB1 (Homo sapiens, UniProt P54762)", "remaining activity [%]": 88.7}
{"target": "RPS6KA6 (Homo sapiens, UniProt Q9UK32)", "remaining activity [%]": 105}
{"target": "EPHB4 (Homo sapiens, UniProt P54760)", "remaining activity [%]": 85.1}
{"target": "DYRK3 (Homo sapiens, UniProt O43781)", "remaining activity [%]": 107}
{"target": "HIPK2 (Homo sapiens, UniProt Q9H2X6)", "remaining activity [%]": 90.2}
{"target": "STK16 (Homo sapiens, UniProt O75716)", "remaining activity [%]": 97.9}
{"target": "Cyclin-dependent kinase 6, with cyclin D3 (CDK6, Homo sapiens, UniProt Q00534)", "remaining activity [%]": 104}
{"target": "RPS6KA5 (Homo sapiens, UniProt O75582)", "remaining activity [%]": 100}
{"target": "Cyclin-dependent kinase 4, with cyclin D3 (CDK4, Homo sapiens, UniProt P11802)", "remaining activity [%]": 105}
{"target": "SRMS (Homo sapiens, UniProt Q9H3Y6)", "remaining activity [%]": 106}
{"target": "EPHA4 (Homo sapiens, UniProt P54764)", "remaining activity [%]": 99.9}
{"target": "PHKG1 (Homo sapiens, UniProt Q16816)", "remaining activity [%]": 65.3}
{"target": "WNK3 (Homo sapiens, UniProt Q9BYP7)", "remaining activity [%]": 97.3}
{"target": "MAP4K4 (Homo sapiens, UniProt O95819)", "remaining activity [%]": 87.6}
{"target": "PDPK1 (Homo sapiens, UniProt O15530)", "remaining activity [%]": 97.8}
{"target": "HIPK4 (Homo sapiens, UniProt Q8NE63)", "remaining activity [%]": 91.1}
{"target": "TSSK2 (Homo sapiens, UniProt Q96PF2)", "remaining activity [%]": 99.6}
{"target": "CAMK2B (Homo sapiens, UniProt Q13554)", "remaining activity [%]": 92.4}
{"target": "BLK (Homo sapiens, UniProt P51451)", "remaining activity [%]": 97.7}
{"target": "MAPKAPK3 (Homo sapiens, UniProt Q16644)", "remaining activity [%]": 98.8}
{"target": "PRKACG (Homo sapiens, UniProt P22612)", "remaining activity [%]": 112}
{"target": "AXL (Homo sapiens, UniProt P30530)", "remaining activity [%]": 98.8}
{"target": "Cyclin-dependent kinase 1, with cyclin B (CDK1, Homo sapiens, UniProt P06493)", "remaining activity [%]": 96.9}
{"data": "Series 3", "SMILES": "CCN(c1nc(N)c(C(=O)N=C(N)N)nc1Cl)C(C)C", "effect on": "β-arrestin recruitment", "mode": "agonist", "technique": "PRESTO-Tango", "concentration": "10 µM", "relative to": "untreated"}
{"target": "HRH4 (Homo sapiens, UniProt Q9H3N8)", "fold over basal": "0.82 fold"}
{"target": "Melatonin-related receptor (GPR50, Homo sapiens, UniProt Q13585)", "fold over basal": 0.74}
{"target": "OPRM1 (Homo sapiens, UniProt P35372)", "fold over basal": 5.87}
{"target": "ADORA2A (Homo sapiens, UniProt P29274)", "fold over basal": 1.19}
{"target": "Probable G-protein coupled receptor 156 (GPR156, Homo sapiens, UniProt Q8NFN8)", "fold over basal": 1.09}
{"target": "GPR183 (Homo sapiens, UniProt P32249)", "fold over basal": 0.92}
{"target": "GPR18 (Homo sapiens, UniProt Q14330)", "fold over basal": 0.76}
{"target": "Probable G-protein coupled receptor 27 (Homo sapiens, UniProt Q9NS67)", "fold over basal": 1.93}
{"target": "P2Y purinoceptor 13 (P2RY13, Homo sapiens, UniProt Q9BPV8)", "fold over basal": 0.93}
{"target": "ADORA2B (Homo sapiens, UniProt P29275)", "fold over basal": 1.02}
{"target": "GHRHR (Homo sapiens, UniProt Q02643)", "fold over basal": "0.62 fold"}
{"target": "NMUR1 (Homo sapiens, UniProt Q9HB89)", "fold over basal": 1.41}
{"target": "CCR4 (Homo sapiens, UniProt P51679)", "fold over basal": 0.99}
{"target": "MRGPRX1 (Homo sapiens, UniProt Q96LB2)", "fold over basal": 1.18}
{"data": "Series 4", "Structure (SMILES)": "C[C@H](c1cccc(C#N)c1)n1cc(Cl)cc(C(N)=O)c1=N", "effect on": "cell-free assay", "technique": "competition with immobilised ligand", "concentration": "1 µM"}
{"target": "FLT3 (Homo sapiens, UniProt P36888, D835Y)", "remaining binding [%]": 96}
{"target": "MAPK8 (Homo sapiens, UniProt P45983)", "remaining binding [%]": 72}
{"target": "Aurora kinase A (AURKA, Homo sapiens, UniProt O14965)", "remaining binding [%]": 97}
{"target": "BMPR1B (Homo sapiens, UniProt O00238)", "remaining binding [%]": 94}
{"target": "ALK (Homo sapiens, UniProt Q9UM73)", "remaining binding [%]": 79}
{"target": "KIT (Homo sapiens, UniProt P10721, A829P)", "remaining binding [%]": 95}
{"target": "MTOR (Homo sapiens, UniProt P42345)", "remaining binding [%]": 91}
{"target": "MAP2K7 (Homo sapiens, UniProt O14733)", "remaining binding [%]": 72}
{"target": "MATK (Homo sapiens, UniProt P42679)", "remaining binding [%]": 100}
{"target": "STK17B (Homo sapiens, UniProt O94768)", "remaining binding [%]": 73}
{"target": "PAK4 (Homo sapiens, UniProt O96013)", "remaining binding [%]": 100}
{"target": "COQ8A (Homo sapiens, UniProt Q8NI60)", "remaining binding [%]": 88}
{"target": "FRK (Homo sapiens, UniProt P42685)", "remaining binding [%]": 98}
{"target": "STK35 (Homo sapiens, UniProt Q8TDR2)", "remaining binding [%]": 88}
{"target": "CDK2 (Homo sapiens, UniProt P24941)", "remaining binding [%]": 100}
{"target": "RET (Homo sapiens, UniProt P07949, M918T)", "remaining binding [%]": 91}
{"note": "A few entries again (series 3):"}
{"target": "GPR183 (Homo sapiens, UniProt P32249)", "fold over basal": 0.92}
{"target": "GHRHR (Homo sapiens, UniProt Q02643)", "fold over basal": "0.62 fold"}
{"target": "Probable G-protein coupled receptor 27 (Homo sapiens, UniProt Q9NS67)", "fold over basal": 1.93}
{"target": "MRGPRX1 (Homo sapiens, UniProt Q96LB2)", "fold over basal": 1.18}
{"target": "ADORA2B (Homo sapiens, UniProt P29275)", "fold over basal": 1.02}
{"target": "ADORA2A (Homo sapiens, UniProt P29274)", "fold over basal": 1.19}
{"target": "Probable G-protein coupled receptor 156 (GPR156, Homo sapiens, UniProt Q8NFN8)", "fold over basal": 1.09}
{"target": "P2Y purinoceptor 13 (P2RY13, Homo sapiens, UniProt Q9BPV8)", "fold over basal": 0.93}
{"target": "OPRM1 (Homo sapiens, UniProt P35372)", "fold over basal": 5.87}
{"target": "CCR4 (Homo sapiens, UniProt P51679)", "fold over basal": 0.99}
